# Results pooled from the literature.
# Lines come from different studies, so protocols differ. Several values in a cell are separate wells, animals, samples, runs or records. ± marks the error that the study gave.
# rep main protease: Replicase polyprotein 1ab, main protease (rep, Severe acute respiratory syndrome coronavirus 2, UniProt P0DTD1)
# rep papain-like protease: Replicase polyprotein 1ab, papain-like protease (rep, Severe acute respiratory syndrome coronavirus 2, UniProt P0DTD1)
# rep nsp13 helicase: Replicase polyprotein 1ab, nsp13 helicase (rep, Severe acute respiratory syndrome coronavirus 2, UniProt P0DTD1)
# rep methyltransferase: Replicase polyprotein 1ab, methyltransferase (rep, Severe acute respiratory syndrome coronavirus 2, UniProt P0DTD1)
Structure (SMILES),target,assay,system,conditions,IC50
Cc1ccc(NC(=S)N/N=C/c2ccccc2O)cc1,rep main protease,"enzyme activity, inhibitor, FRET",,,3.61 µM
Cc1ccccc1COn1nnc2ccc(S(=O)(=O)N(C)C)cc21,rep main protease,"enzyme activity, inhibitor",,,> 100 µM
CCN1C(=O)CC[C@H]1c1c(O)cc2c(c1O)C[C@@H](OC(=O)c1cc(O)c(O)c(O)c1)[C@@H](c1cc(O)c(O)c(O)c1)O2,rep main protease,"enzyme activity, inhibitor",,,46.7 µM
CCOC(=O)ONC(=O)/C=C\c1ccc([N+](=O)[O-])cc1,rep main protease,"enzyme activity, inhibitor, FRET",,,4.3 µM
Cc1ccc(OCCN(C)C)cc1C(=O)N[C@H](C)c1cc(-c2cnn(C)c2)cc(-c2cncs2)c1,rep papain-like protease,"enzyme activity, inhibitor, FRET",,,0.108 µM
O=C1CC(c2ccccc2)Oc2ccccc21 (centres unmarked),rep nsp13 helicase,"helicase ATPase activity, inhibitor",,with: poly(A) ssRNA,> 30 µM
CN(C)CCCCNC(=O)C[C@H](Cc1ccc(F)cc1)NC(=O)[C@@H](Cc1ccc(Cl)cc1Cl)NC(=O)C(N)Cc1ccccc1C(N)=O (some centres unmarked),rep main protease,"enzyme activity, inhibitor, fluorescence",,,0.3 µM
Nc1ncnc2c1ncn2[C@@H]1O[C@H](CSCc2cc(C(=O)O)cc(-c3cccnc3)c2)[C@@H](O)[C@H]1O,"Replicase polyprotein 1ab, nsp16 with nsp10 (rep, Severe acute respiratory syndrome coronavirus 2, UniProt P0DTD1)","methyltransferase activity, inhibitor",,"30 min, 30 °C, with: SAM 10 µM",0.0086 ± 0.0004 µM
C=CC(=O)N(c1ccc(C(C)(C)C)cc1)C(C(=O)NCCc1cccc(F)c1)c1cccnc1 (centres unmarked),rep main protease,"enzyme activity, inhibitor",,,2.62 µM
NC[C@@H](CC[C@H](N)C(=O)O)C[C@H]1O[C@@H](n2cnc3c(N)ncnc32)[C@H](O)[C@@H]1O,"Replicase polyprotein 1ab, nsp14 (rep, Severe acute respiratory syndrome coronavirus 2, UniProt P0DTD1)","nsp14 methyltransferase activity, inhibitor, radiometric SPA",,"20 min, with: 3H-SAM 250 nM, RNA 50 nM",0.19 ± 0.04 µM
CN(C)c1ccc(N(Cc2cc(Cl)cs2)C(=O)Cc2cncc3ccccc23)cc1,rep main protease,"enzyme activity, inhibitor",Caco-2,28 h,0.07 ± 0.02 µM
CC(=O)N[C@@H](Cc1ccc(O)cc1)C(=O)N[C@@H](CCCNC(=N)N)C(=O)N[C@@H](Cc1ccccc1)C(=O)N[C@@H](C)C(=O)N[C@@H](CCCNC(=N)N)C(=O)N[C@@H](CC(N)=O)C(=O)N[C@@H](C)C(=O)N[C@H](C(=O)N[C@@H](Cc1ccccc1)C(=O)N[C@@H](C)C(=O)N[C@@H](Cc1ccccc1)C(=O)N[C@@H](Cc1ccc(O)cc1)C(=O)N[C@@H](C)C(=O)N[C@H](C(=O)N[C@@H](CC(=O)O)C(N)=O)[C@@H](C)O)C(C)C,rep main protease,"enzyme activity, inhibitor",,,2.9 µM
Cc1oc2nc1C(=O)N[C@](C)(C(=O)OC(C)C)c1nc(c(C)o1)C(=O)N[C@](C)(C(=O)OC(C)C)c1nc(c(C)o1)C(=O)N[C@]2(C)C(=O)OC(C)C,rep main protease,"enzyme activity, inhibitor",,,2.6 µM and 2.58 µM
COc1cc(-c2oc3cc(O)cc(O)c3c(=O)c2O[C@@H]2O[C@H](CO[C@@H]3O[C@@H](C)[C@H](O)[C@@H](O)[C@H]3O)[C@@H](O)[C@H](O)[C@H]2O)cc(O)c1O,rep main protease,"enzyme activity, inhibitor",,3 min preincubation,35.4 µM
C=C1CCC2C(C)(CO)C(O)CCC2(C)C1CC(SC(=S)N1CCN(Cc2cc(F)c(F)cc2F)CC1)C1=CCOC1=O (centres unmarked),rep main protease,"enzyme activity, inhibitor, fluorescence",,,72 µM
CCC1c2ccsc2CCN1C(=O)Cn1cc(C(=O)O)nn1 (centres unmarked),rep main protease,"enzyme activity, inhibitor",,,> 100 µM
CN1CCN(C(=O)C[C@H](Cc2ccc(F)cc2)NC(=O)[C@@H](Cc2ccc(Cl)cc2Cl)NC(=O)[C@H](N)Cc2ccccc2C#N)CC1,rep main protease,"enzyme activity, inhibitor, fluorescence",,,2 µM
CC(C)C[C@H](NC(=O)c1cc2c(F)ccc(F)c2[nH]1)C(=S)N[C@@H](C[C@@H]1CCNC1=O)C(=O)c1nc2cc(F)ccc2s1,rep main protease,"enzyme activity, inhibitor",,,0.67 µM
CSCc1cn(CC(=O)N2CCc3sccc3C2)nn1,rep main protease,"enzyme activity, inhibitor",,,> 100 µM
COc1ccc(C(C)NC(=O)c2cc(N)ccc2C)cc1OC (centres unmarked),rep papain-like protease,inhibitor,,,24.7 ± 3.7 µM
Nc1nnc(SC2CC(=O)N(c3cccc4ccccc34)C2=O)s1 (centres unmarked),rep main protease,"enzyme activity, inhibitor",,60 min preincubation,0.64 ± 0.08 µM
COC(=O)C[C@H](NC(=O)c1ccccc1[Se][Se]c1ccccc1C(=O)N[C@@H](CC(=O)OC)C(=O)OC)C(=O)OC,rep main protease,"enzyme activity, inhibitor",,,1.92 µM
CNc1nc(Nc2cccc3cnccc23)nc(N2CCN(C(=O)CCl)CC2)n1,rep papain-like protease,"enzyme activity, inhibitor, fluorescence",,,4.05 µM
CNC(=O)C[C@H](Cc1ccncc1)NC(=O)[C@@H](Cc1cccc(Br)c1)NC(=O)[C@@H](N)Cc1cccc(F)c1,rep main protease,"enzyme activity, inhibitor, fluorescence",,,6 µM
CCc1ccccc1NC(=S)N/N=C/c1ccc(O)cc1O,rep main protease,"enzyme activity, inhibitor, FRET",,,2.43 µM
CN(C)S(=O)(=O)c1ccc2nnn(OCc3cccc4ccccc34)c2c1,rep main protease,"enzyme activity, inhibitor",,,> 100 µM
CC1=C(c2ccccc2)C1C(=O)NCc1nc(-c2ccc(C)cc2)no1 (centres unmarked),rep main protease,"enzyme activity, inhibitor, FRET",,,35.2 µM
CC(C)(C)c1ccc(N(C(=O)C(F)F)C(C(=O)NCCc2cccc(F)c2)c2cccnc2)cc1 (centres unmarked),rep main protease,"enzyme activity, inhibitor",,,> 20 µM
Cc1cncc(C(=O)N2CCN(C(c3ccccc3)c3ccccc3)CC2)c1,rep main protease,"enzyme activity, inhibitor",,,0.13 µM
O=C(c1cccc(Br)c1)N1CCC(c2ccn3ncc(C(=O)N4CCCCC4)c3c2)CC1,"Replicase polyprotein 1ab, nsp3 macrodomain (rep, Severe acute respiratory syndrome coronavirus 2, UniProt P0DTD1)","ADP-ribose binding, inhibitor, fluorescence polarization",,"Mac1 domain, SARS-CoV-2",75.2 ± 10.6 µM
O=C(/C=C/c1ccc(O)c(O)c1)O[C@@H]1Cc2c(O)cc(O)cc2O[C@@H]1c1cc(O)c(O)c(O)c1,rep main protease,"enzyme activity, inhibitor, FRET",,,9.09 µM
COCn1cc(-c2cc(-c3cnn(C(F)F)c3)cc([C@@H](C)NC(=O)c3cc(OCCN(C)C)ccc3C)c2)cn1,rep papain-like protease,"enzyme activity, inhibitor, FRET",,,0.121 µM
O=C(Nc1ccccc1)c1ccccc1[Se][Se]c1ccccc1C(=O)Nc1ccccc1,rep main protease,"enzyme activity, inhibitor",,"Mpro, without DTT",0.065 µM
CC1CC(c2ccc(-c3nnn[nH]3)cc2)=NN1c1ccc(C#N)c(Cl)c1 (centres unmarked),rep methyltransferase,"enzyme activity, inhibitor",,,6.31 µM
N#Cc1ccccc1C[C@@H](N)C(=O)N[C@H](Cc1ccc(Cl)cc1Cl)C(=O)N[C@H](CC(=O)O)Cc1ccc(F)cc1,rep main protease,"enzyme activity, inhibitor, fluorescence",,,4 µM
c1ccc([Se][Se]c2ccccc2)cc1,rep main protease,"enzyme activity, inhibitor",,,1.87 µM
O=c1c2ccccc2sn1-c1ccccc1,rep main protease,"enzyme activity, inhibitor",,2.5 min preincubation,0.2 ± 0.02 µM
O=C1C=CC(=O)C=C1,rep methyltransferase,"enzyme activity, inhibitor",,,3.16 µM
CCC(C(=O)Nc1ccccc1F)n1cccc2nc(SCc3ccc(F)cc3)nc1-2 (centres unmarked),rep papain-like protease,"enzyme activity, inhibitor",,,6.08 µM
O=c1cc(-c2ccc(OC3O[C@H](CO)[C@@H](O)[C@H](O)[C@H]3O)c(O)c2)oc2cc(O)cc(O)c12 (some centres unmarked),rep nsp13 helicase,ATPase activity,,no nucleic acid,> 30 µM
CC(C)[C@H](NC(=O)c1ccccc1[Se][Se]c1ccccc1C(=O)N[C@H](C(=O)O)C(C)C)C(=O)O,rep main protease,"enzyme activity, inhibitor",,,4.87 µM
O=C1OC[C@H]2[C@@H]1CO[C@H]2c1ccc2c(c1)OCO2,rep main protease,"enzyme activity, inhibitor, FRET",,,0.917 ± 0.05 µM
CC1(C)C=Cc2c(ccc(C3COc4cc(O)cc(O)c4C3=O)c2O)O1 (centres unmarked),rep main protease,"enzyme activity, inhibitor",,,1.52 µM
CCC(C(=O)Nc1ccccc1F)n1c(SCc2ccc(F)cc2)nc2ncccc21 (centres unmarked),rep papain-like protease,"enzyme activity, inhibitor",,,> 20 µM
CNC(=O)C[C@H](Cc1ccc(F)cc1)NC(=O)[C@@H](Cc1ccc(F)cc1F)NC(=O)[C@H](N)Cc1ccccc1C#N,rep main protease,"enzyme activity, inhibitor, fluorescence",,,2 µM
C=CC(=O)NC(CC(=C)C)C(=O)N1CC(C(=O)NC(CCSC)C(=O)NC)C(c2cccc(C(F)(F)F)c2)C1 (centres unmarked),rep main protease,,,,> 100 µM
CC1CC(c2ccc(C(=O)O)cn2)=NN1c1ccc(C#N)c(Cl)c1 (centres unmarked),rep methyltransferase,"enzyme activity, inhibitor",,,> 100 µM
